Results from different studies.
A part holds a random share of what one study measured. Positions count from the first letter of the parent shown.

Set 1
Target: Prothrombin, mature alpha-thrombin (F2, Homo sapiens, UniProt P00734)
Method: aptamer microarray, sandwich
Molecule type: DNA with 2'F-ANA
Matrix: in vitro
Tested at: 200 nM
Notes: whole 15-mer aptamer, many near background
Added: Cy3 exosite-II aptamer, 400 nM
Direction: higher = stronger binding
Strand: GGTTGGTGTGGTTGG
Modification	mean fluorescence intensity
2'F-ANA at 1 4 7 9 11 13	71.8 a.u.
2'F-ANA at 2 3 4 7 10 12 13 15	248 a.u.
2'F-ANA at 2 4 5 6 8 11	69.6 a.u.
2'F-ANA at 3 4 7 8 9 10 11 12 13	319 a.u.
2'F-ANA at 2 4 7 8 13 14	180 a.u.
2'F-ANA at 5 6 7 9 13	52.6 a.u.
2'F-ANA at 3 9 13 14	560 a.u.
2'F-ANA at 1 3 5 8 9 10	47.7 a.u.

Set 2
Target: CCNB3, cyclin fold, Cln2 fusion (human)
Method: yeast growth competition, sequencing
Matrix: yeast
Notes: weak parent motif
Relative to: not given
Direction: higher = stronger binding
Starting sequence: SAMHD1 docking peptide (human); ASKSRVQLFKDDP; partner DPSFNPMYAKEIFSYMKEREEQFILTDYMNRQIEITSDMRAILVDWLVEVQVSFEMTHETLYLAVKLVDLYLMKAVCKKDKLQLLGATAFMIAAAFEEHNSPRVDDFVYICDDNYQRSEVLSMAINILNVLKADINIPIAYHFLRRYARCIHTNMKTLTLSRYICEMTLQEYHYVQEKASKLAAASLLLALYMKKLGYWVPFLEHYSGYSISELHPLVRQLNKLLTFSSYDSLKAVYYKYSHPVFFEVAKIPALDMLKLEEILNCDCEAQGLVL
Variant	normalised enrichment score
ASKSRVALFKDDP [Q7A]	-0.244
ASKSRVQLFKDAP [D12A]	0.0434
ASKSRVPLFKDDP [Q7P]	-0.225
ASKSRVQLFKDCP [D12C]	0.0178
ASKSRVQLFKRDP [D11R]	0.429
ASKSQVQLFKDDP [R5Q]	-0.048
ASKSRDQLFKDDP [V6D]	-0.383
ASKSRVQYFKDDP [L8Y]	0.0069

Set 3
Target: Calcium/calmodulin-dependent protein kinase type 1G (CAMK1G, Homo sapiens, UniProt Q96NX5)
Sequence of UniProt Q96NX5 (whole entry, looked up): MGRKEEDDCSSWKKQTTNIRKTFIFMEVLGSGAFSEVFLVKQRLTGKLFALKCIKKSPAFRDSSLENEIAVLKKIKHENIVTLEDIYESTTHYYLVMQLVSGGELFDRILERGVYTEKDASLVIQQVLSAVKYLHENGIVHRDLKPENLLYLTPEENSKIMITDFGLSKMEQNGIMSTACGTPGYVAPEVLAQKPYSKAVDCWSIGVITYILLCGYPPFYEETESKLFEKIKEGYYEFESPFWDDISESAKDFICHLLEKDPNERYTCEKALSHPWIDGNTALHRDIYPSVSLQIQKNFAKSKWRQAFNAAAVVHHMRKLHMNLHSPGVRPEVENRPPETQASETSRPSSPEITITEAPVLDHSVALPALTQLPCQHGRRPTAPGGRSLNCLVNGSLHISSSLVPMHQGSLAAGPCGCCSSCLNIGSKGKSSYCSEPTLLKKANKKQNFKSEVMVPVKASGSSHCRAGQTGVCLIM
Effect on: enzyme activity
Action: inhibitor
Tested at: 0.5 µM
Relative to: control
Compound	remaining activity [%]
O=c1cc(N2CCOCC2)oc2c(-c3ccccc3)cccc12	93.8
NC(=O)c1cccc(-c2cc(Nc3ccc(OC(F)(F)F)cc3)ncn2)c1	98.1
Cc1ccc(S(=O)(=O)/C=C/C#N)cc1	99.9
CC(C)n1cnc2c(Nc3cccc(Cl)c3)nc(NCCO)nc21	98.7
COc1cccc(-c2cc(=O)c3ccccc3o2)c1N	96.5
CCN(CC)CCCCN1c2ccccc2Oc2ccc(Cl)cc21	99.2
CCCCc1c(-c2ccc(O)cc2)[nH]c2nccnc12	104
O=C1Cc2c([nH]c3ccc(Br)cc23)-c2ccccc2N1	97.4
O=C1NC(=O)c2c1c1c3ccccc3[nH]c1n1cncc21	94.7
NC(=O)c1ccc(-c2nc(-c3ccc4c(c3)OCCO4)c(-c3ccccn3)[nH]2)cc1	96.6
C[C@@H](N)[C@H]1CC[C@H](C(=O)Nc2ccncc2)CC1	99.3
O=C1NC(=O)c2c1c1c3ccccc3[nH]c1c1[nH]c3cc(Br)ccc3c21	94.5
CC(C)N(CCC(=O)c1ccc2ccccc2c1)Cc1ccccc1	95.1
Nc1nc(Nc2ccc(S(N)(=O)=O)cc2)nn1C(=S)Nc1c(F)cccc1F	95.9
Clc1ccc(Nc2nnc(Cc3ccncc3)c3ccccc23)cc1	107
O=C1c2ccccc2-c2nc3nnnn3nc21	28.5
COc1ccc(COc2ccc(Cc3cnc(N)nc3N)cc2OC)cc1	98.3
O=C(O)/C=C/c1cc(Br)c(Br)c(Br)c1Br	94.1
N#CC(c1ccnc(NCCc2cccnc2)n1)c1nc2ccccc2s1 (stereo not shown)	92.3

Set 4
Target: 5-hydroxytryptamine receptor 1B (HTR1B, Homo sapiens, UniProt P28222)
Sequence of UniProt P28222 (whole entry, looked up): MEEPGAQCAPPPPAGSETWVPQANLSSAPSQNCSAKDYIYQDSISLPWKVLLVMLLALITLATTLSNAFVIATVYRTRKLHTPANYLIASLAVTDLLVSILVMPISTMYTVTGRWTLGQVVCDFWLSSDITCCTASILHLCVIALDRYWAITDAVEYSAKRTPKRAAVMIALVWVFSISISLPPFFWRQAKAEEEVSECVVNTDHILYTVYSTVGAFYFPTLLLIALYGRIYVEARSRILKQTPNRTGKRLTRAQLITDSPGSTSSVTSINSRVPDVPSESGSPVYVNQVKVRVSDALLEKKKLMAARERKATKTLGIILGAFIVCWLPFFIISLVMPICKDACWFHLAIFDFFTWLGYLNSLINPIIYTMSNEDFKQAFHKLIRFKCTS
Effect on: ligand displacement
Method: radioligand
Tested at: 10 µM
SMILES	inhibition
CCOCCn1cc(C(=O)Nc2ccc(-n3nc(-c4cccnc4)cc3C(F)(F)F)cn2)ccc1=O	18.8%
CC(=O)Nc1c(C(C)=O)c(=O)n(C)c2nc(-c3ccc(Cl)cc3Cl)c(-c3ccc(Cl)cc3)cc12	43.6%
COc1ccc2cc(OCC3(C(=O)O)CN(C(=O)c4ccc(F)cc4)C3)ccc2c1	-11.2%
Cc1cc(NC(=O)c2cccc(S(F)(F)(F)(F)F)c2)cc(-n2ccn3nc(-c4cccnc4)cc23)c1	-1.66%
O=C(O)[C@H]1[C@H](Cn2nnc3ccccc3c2=O)CC[C@@H]1C(=O)c1ccc(OCCC2CCOCC2)cc1	11.5%
O=C(NCc1ncc(C(F)(F)F)cc1Cl)c1ccc2c(c1)C1(CCS(=O)(=O)CC1)[C@@H](C1CC1)N2S(=O)(=O)c1ccc(F)cc1	-2.74%

Single results of other studies
Target: SMN1, full length (human, UniProt Q16637, residues 1-294)
Sequence of UniProt Q16637 (whole entry, looked up): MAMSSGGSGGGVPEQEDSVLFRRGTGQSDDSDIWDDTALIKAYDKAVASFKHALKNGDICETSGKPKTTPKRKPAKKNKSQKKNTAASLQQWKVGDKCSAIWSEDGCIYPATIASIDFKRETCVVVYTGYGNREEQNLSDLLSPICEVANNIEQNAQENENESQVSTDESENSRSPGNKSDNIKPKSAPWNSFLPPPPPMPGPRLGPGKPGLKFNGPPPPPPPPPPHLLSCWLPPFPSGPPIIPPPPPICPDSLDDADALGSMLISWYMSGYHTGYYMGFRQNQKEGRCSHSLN
Method: nitrocellulose filter binding
Molecule type: RNA
Matrix: in vitro
Tested at: 100 nM
Notes: whole RNA, constant flanks, single concentration, ends assumed
Relative to: round 9 selected pool
Direction: higher = stronger binding
Strand	relative RNA binding
GGGCUCACCACGCACGUGGUAAUUGUCUAUGGUGAUUGGGCCUCACCACGGCAAGCU	15 % of pool
GGGCUCACCACGCACUUGCCUUGCUUGCCAAACUUGGGGGCCUCACCACGGCAAGCU	3.9 % of pool

A few entries again (set 2):
Variant	normalised enrichment score
ASKSRVPLFKDDP [Q7P]	-0.225
ASKSRVQLFKDCP [D12C]	0.0178
ASKSRVQLFKRDP [D11R]	0.429
ASKSQVQLFKDDP [R5Q]	-0.048
